Assay results from different studies.
Numbered parts are unrelated; each lists some results of a single study.
Chain of UniProt Q06418 (whole entry, looked up): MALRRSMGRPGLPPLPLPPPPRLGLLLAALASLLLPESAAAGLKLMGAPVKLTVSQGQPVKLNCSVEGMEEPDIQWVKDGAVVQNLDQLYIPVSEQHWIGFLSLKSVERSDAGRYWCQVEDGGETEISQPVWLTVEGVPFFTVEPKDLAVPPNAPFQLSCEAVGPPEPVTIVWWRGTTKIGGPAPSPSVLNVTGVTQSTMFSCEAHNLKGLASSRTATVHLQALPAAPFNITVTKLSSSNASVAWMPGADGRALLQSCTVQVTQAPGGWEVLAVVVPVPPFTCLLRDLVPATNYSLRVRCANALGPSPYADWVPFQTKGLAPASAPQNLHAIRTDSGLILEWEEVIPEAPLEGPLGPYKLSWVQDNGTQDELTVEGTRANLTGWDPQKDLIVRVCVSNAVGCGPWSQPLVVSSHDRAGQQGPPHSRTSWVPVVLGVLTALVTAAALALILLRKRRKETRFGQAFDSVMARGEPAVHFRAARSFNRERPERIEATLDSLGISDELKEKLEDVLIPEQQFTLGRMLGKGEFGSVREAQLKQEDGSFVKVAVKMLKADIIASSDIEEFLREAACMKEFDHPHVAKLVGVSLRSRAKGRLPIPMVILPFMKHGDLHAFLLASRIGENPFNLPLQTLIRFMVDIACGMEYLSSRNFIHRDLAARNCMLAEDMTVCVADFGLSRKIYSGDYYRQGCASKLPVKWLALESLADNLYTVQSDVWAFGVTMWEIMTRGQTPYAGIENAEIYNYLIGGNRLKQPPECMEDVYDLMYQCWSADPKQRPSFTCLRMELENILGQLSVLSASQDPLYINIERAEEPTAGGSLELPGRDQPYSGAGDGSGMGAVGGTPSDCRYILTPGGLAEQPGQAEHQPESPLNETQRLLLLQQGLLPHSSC
Chain of UniProt P42680 (whole entry, looked up): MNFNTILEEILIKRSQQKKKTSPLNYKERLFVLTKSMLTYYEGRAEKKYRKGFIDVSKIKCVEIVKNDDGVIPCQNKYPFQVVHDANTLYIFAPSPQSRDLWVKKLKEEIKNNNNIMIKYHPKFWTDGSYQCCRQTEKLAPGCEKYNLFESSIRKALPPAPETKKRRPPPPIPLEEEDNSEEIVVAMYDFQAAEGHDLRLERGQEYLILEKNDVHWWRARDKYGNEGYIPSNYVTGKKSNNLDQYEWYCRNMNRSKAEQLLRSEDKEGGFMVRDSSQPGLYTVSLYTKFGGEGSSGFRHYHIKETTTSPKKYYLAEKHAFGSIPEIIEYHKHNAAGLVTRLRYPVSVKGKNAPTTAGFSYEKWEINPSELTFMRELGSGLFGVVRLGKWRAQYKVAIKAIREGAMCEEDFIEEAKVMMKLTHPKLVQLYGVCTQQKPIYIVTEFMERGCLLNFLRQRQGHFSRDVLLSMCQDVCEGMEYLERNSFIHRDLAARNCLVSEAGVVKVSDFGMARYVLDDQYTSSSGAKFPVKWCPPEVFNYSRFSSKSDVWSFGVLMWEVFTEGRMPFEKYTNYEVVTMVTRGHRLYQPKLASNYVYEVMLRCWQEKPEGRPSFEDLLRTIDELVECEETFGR
Chain of UniProt P23458 (whole entry, looked up): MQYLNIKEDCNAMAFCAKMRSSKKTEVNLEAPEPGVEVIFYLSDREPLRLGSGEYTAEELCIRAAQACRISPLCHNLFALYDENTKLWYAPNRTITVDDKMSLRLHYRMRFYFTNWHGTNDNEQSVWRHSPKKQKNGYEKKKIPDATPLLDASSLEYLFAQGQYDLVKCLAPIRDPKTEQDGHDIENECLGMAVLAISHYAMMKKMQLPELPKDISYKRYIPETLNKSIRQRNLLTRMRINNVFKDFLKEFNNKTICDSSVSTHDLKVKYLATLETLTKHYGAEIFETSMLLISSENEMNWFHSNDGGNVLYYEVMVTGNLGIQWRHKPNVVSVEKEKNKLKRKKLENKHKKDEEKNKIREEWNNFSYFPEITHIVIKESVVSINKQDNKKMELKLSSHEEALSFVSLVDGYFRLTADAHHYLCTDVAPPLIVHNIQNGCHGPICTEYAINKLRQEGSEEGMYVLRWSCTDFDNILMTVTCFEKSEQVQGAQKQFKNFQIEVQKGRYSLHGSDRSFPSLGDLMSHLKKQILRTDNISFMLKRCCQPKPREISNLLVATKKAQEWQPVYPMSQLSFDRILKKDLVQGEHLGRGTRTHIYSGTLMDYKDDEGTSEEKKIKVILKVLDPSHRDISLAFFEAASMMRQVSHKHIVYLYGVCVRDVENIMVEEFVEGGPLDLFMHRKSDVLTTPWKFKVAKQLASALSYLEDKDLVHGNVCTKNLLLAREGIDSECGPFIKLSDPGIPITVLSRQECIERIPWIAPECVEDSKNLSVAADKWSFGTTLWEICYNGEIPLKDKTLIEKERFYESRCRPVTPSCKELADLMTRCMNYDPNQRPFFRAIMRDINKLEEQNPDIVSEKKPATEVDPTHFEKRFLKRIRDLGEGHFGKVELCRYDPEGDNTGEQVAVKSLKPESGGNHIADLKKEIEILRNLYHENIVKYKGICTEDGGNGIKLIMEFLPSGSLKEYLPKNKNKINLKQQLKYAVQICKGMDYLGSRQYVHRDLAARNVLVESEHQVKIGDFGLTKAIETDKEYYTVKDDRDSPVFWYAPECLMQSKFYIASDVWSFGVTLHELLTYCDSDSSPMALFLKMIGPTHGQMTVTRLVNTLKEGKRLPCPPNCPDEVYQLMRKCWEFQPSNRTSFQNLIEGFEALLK
Chain of UniProt P25098 (whole entry, looked up): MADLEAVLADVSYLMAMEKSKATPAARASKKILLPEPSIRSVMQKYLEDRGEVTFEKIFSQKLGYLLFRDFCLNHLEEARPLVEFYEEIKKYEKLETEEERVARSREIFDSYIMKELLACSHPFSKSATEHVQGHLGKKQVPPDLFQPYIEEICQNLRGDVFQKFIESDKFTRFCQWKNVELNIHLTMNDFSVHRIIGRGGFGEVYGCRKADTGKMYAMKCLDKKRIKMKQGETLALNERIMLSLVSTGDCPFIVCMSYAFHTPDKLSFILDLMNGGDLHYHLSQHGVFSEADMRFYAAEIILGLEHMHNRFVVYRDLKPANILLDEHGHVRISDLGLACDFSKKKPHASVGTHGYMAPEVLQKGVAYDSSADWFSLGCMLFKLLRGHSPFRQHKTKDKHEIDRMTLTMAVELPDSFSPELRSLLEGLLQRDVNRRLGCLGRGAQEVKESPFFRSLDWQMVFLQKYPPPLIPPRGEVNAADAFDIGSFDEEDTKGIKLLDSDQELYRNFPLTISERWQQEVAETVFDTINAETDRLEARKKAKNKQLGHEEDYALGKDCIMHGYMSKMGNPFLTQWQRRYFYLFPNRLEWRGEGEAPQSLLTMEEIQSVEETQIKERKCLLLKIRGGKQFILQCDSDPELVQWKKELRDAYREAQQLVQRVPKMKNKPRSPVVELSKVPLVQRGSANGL
Chain of UniProt Q96SB4 (whole entry, looked up): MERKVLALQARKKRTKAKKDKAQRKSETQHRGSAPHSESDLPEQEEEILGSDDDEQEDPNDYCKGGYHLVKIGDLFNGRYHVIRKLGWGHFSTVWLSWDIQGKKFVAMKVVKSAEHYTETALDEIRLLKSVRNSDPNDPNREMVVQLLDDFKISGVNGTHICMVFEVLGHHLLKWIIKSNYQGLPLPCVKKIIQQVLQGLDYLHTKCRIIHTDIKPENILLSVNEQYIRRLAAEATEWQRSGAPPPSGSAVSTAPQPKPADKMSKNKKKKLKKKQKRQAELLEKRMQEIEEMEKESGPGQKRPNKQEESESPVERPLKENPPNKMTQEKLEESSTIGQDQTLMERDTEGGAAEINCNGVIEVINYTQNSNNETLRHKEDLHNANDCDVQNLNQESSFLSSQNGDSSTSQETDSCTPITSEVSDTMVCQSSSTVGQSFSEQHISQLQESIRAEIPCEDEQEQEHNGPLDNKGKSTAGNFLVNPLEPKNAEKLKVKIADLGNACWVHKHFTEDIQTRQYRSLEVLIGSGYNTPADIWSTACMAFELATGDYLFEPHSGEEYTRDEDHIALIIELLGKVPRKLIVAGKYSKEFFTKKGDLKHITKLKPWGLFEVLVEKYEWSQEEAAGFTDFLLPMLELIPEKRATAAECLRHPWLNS
Chain of UniProt Q9HBY8 (whole entry, looked up): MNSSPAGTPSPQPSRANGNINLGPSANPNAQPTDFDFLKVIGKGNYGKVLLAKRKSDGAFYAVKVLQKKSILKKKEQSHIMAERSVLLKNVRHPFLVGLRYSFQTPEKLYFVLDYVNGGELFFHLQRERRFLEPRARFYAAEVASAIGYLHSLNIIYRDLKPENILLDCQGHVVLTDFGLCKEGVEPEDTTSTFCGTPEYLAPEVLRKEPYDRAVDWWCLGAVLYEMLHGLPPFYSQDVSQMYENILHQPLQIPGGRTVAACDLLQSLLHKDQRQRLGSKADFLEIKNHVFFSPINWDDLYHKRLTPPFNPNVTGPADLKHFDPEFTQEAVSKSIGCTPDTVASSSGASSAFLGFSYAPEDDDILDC

Series 1 — SMILES: Cn1nc2c3c(cccc31)C(=O)c1ccccc1-2; effect on: enzyme activity; action: inhibitor; concentration: 0.5 µM; baseline: control
| target | remaining activity [%] |
| --- | --- |
| FLT1 (Homo sapiens, UniProt P17948) | 84.3 |
| EPHA6 (Homo sapiens, UniProt Q9UF33) | 87.6 |
| MUSK (Homo sapiens, UniProt O15146) | 88.4 |
| RPS6KA3 (Homo sapiens, UniProt P51812) | 97.3 |
| PAK6 (Homo sapiens, UniProt Q9NQU5) | 98.6 |
| PRKCZ (Homo sapiens, UniProt Q05513) | 97.9 |
| EPHA2 (Homo sapiens, UniProt P29317) | 104 |
| CLK1 (Homo sapiens, UniProt P49759) | 92.7 |
| MAP3K20 (Homo sapiens, UniProt Q9NYL2) | 83.1 |
| TYRO3 (Homo sapiens, UniProt Q06418) | 99.8 |
| SGK2 (Homo sapiens, UniProt Q9HBY8) | 98.9 |
| TEC (Homo sapiens, UniProt P42680) | 102 |
| JAK1 (Homo sapiens, UniProt P23458) | 110 |
| SIK2 (Homo sapiens, UniProt Q9H0K1) | 100 |
| PAK1 (Homo sapiens, UniProt Q13153) | 98.5 |
| CLK2 (Homo sapiens, UniProt P49760) | 94.5 |
| PRKCQ (Homo sapiens, UniProt Q04759) | 106 |
| IGF1R (Homo sapiens, UniProt P08069) | 95.9 |
| CAMKK1 (Homo sapiens, UniProt Q8N5S9) | 102 |
| CSNK1E (Homo sapiens, UniProt P49674) | 34.3 |
| Cyclin-dependent kinase 2, with cyclin E (CDK2, Homo sapiens, UniProt P24941) | 89.4 |
| CSNK1D (Homo sapiens, UniProt P48730) | 20.8 |
| CAMK1 (Homo sapiens, UniProt Q14012) | 104 |
| SRPK1 (Homo sapiens, UniProt Q96SB4) | 99.7 |

Series 2 — method: competition with immobilised ligand; concentration: 1 µM
SMILES: CN1CCN(c2cnc3c(C4CCN(C(=O)c5ccc(OC(F)(F)F)cc5N)CC4)ncnc3c2)CC1
| target | test | remaining binding [%] |
| --- | --- | --- |
| FLT3 (Homo sapiens, UniProt P36888, R834Q) | cell-free assay | 100 |
| STK24 (Homo sapiens, UniProt Q9Y6E0) | cell-free assay | 100 |
| CDK11B (Homo sapiens, UniProt P21127) | cell-free assay | 82 |
| ANKK1 (Homo sapiens, UniProt Q8NFD2) | cell-free assay | 98 |
| TYRO3 (Homo sapiens, UniProt Q06418) | cell-free assay | 100 |
| CSNK1G1 (Homo sapiens, UniProt Q9HCP0) | cell-free assay | 100 |
| BUB1 (Homo sapiens, UniProt O43683) | cell-free assay | 93 |
| CDKL3 (Homo sapiens, UniProt Q8IVW4) | binding | 92 |
| MAP4K3 (Homo sapiens, UniProt Q8IVH8) | cell-free assay | 100 |
| STK17B (Homo sapiens, UniProt O94768) | cell-free assay | 86 |
| BRAF (Homo sapiens, UniProt P15056) | cell-free assay | 100 |
| PTK2B (Homo sapiens, UniProt Q14289) | cell-free assay | 100 |
| TEC (Homo sapiens, UniProt P42680) | binding | 100 |
| DAPK2 (Homo sapiens, UniProt Q9UIK4) | cell-free assay | 90 |
| PIP5K1A (Homo sapiens, UniProt Q99755) | cell-free assay | 64 |
| GRK2 (Homo sapiens, UniProt P25098) | cell-free assay | 100 |
| PTK2 (Homo sapiens, UniProt Q05397) | cell-free assay | 100 |
| MAP3K7 (Homo sapiens, UniProt O43318) | cell-free assay | 100 |
| RET (Homo sapiens, UniProt P07949, V804M) | cell-free assay | 100 |
| Tyrosine-protein kinase JAK1, JH2 (JAK1, Homo sapiens, UniProt P23458) | cell-free assay | 90 |
| EGFR (Homo sapiens, UniProt P00533, G719C) | cell-free assay | 94 |
| LRRK2 (Homo sapiens, UniProt Q5S007, G2019S) | cell-free assay | 100 |
| MATK (Homo sapiens, UniProt P42679) | cell-free assay | 100 |
| SGK1 (Homo sapiens, UniProt O00141) | cell-free assay | 100 |
| PIK3CA (Homo sapiens, UniProt P42336, E545A) | cell-free assay | 89 |

Series 3 — cell line: A-375; concentration: 100 µM; time: 36 h
| Compound | viability |
| --- | --- |
| OCCN1CCN(CCCN2c3ccccc3Sc3ccc(Cl)cc32)CC1 | -0.0139% |
| OCCN1CCN(CC/C=C2/c3ccccc3Sc3ccc(C(F)(F)F)cc32)CC1 | 1.1% |
| Clc1ccc(CCC(Cn2ccnc2)Sc2c(Cl)cccc2Cl)cc1 (centres unmarked) | -0.154% |
| CC(C)(C)NC[C@H](O)COc1nsnc1N1CCOCC1 | 91.7% |
| CCOC(=O)[C@H](CCc1ccccc1)N[C@@H](C)C(=O)N1CCC[C@H]1C(=O)O | 122% |
| CC(C)C(=O)Nc1ccc([N+](=O)[O-])c(C(F)(F)F)c1 | 5.65% |
| Nc1nc2[nH]cc(CCc3ccc(C(=O)O)cc3)c2c(=O)[nH]1 | 56.9% |
| CN1CCC(=C2c3ccccc3CCc3cccnc32)CC1 | 79.8% |
| COC1=CC(=O)C[C@@H](C)[C@]12Oc1c(Cl)c(OC)cc(OC)c1C2=O | 37.4% |
| CC[C@H]1OC(=O)[C@H](C)[C@@H](O[C@H]2C[C@@](C)(OC)[C@@H](O)[C@H](C)O2)[C@H](C)[C@@H](O[C@@H]2O[C@H](C)C[C@H](N(C)C)[C@H]2O)[C@](C)(OC)C[C@@H](C)C(=O)[C@H](C)[C@@H](O)[C@]1(C)O | 97% |
| NC[C@H]1O[C@H](O[C@H]2[C@H](O)[C@@H](O[C@H]3O[C@H](CO)[C@@H](O)[C@H](N)[C@H]3O)[C@H](N)C[C@@H]2N)[C@H](N)C[C@@H]1O | 121% |
| O=c1ccn([C@@H]2O[C@H](CO)[C@@H](O)[C@H]2O)c(=O)[nH]1 | 112% |
| CN(C)c1ccc(O)c2c1C[C@H]1C[C@H]3[C@H](N(C)C)C(O)=C(C(N)=O)C(=O)[C@@]3(O)C(O)=C1C2=O | 110% |
| COc1ccc2cc1Oc1ccc(cc1)C[C@H]1c3c(cc4c(c3Oc3cc5c(cc3OC)CCN(C)[C@@H]5C2)OCO4)CCN1C | 1.94% |
| O=C(O)c1cccnc1 | 97.5% |
| Oc1cc(O)cc(/C=C/c2ccc(O)c(O)c2)c1 | 59.5% |
| O=C(OC[C@H]1O[C@@H](OC(=O)c2cc(O)c(O)c(OC(=O)c3cc(O)c(O)c(O)c3)c2)[C@H](OC(=O)c2cc(O)c(O)c(OC(=O)c3cc(O)c(O)c(O)c3)c2)[C@@H](OC(=O)c2cc(O)c(O)c(OC(=O)c3cc(O)c(O)c(O)c3)c2)[C@@H]1OC(=O)c1cc(O)c(O)c(OC(=O)c2cc(O)c(O)c(O)c2)c1)c1cc(O)c(O)c(OC(=O)c2cc(O)c(O)c(O)c2)c1 | 24.6% |
| CO[C@H]1C(=O)[C@]2(C)[C@@H](OC)C[C@H]3OC[C@@]3(OC(C)=O)[C@H]2[C@H](OC(=O)c2ccccc2)[C@]2(O)C[C@H](OC(=O)[C@H](O)[C@@H](NC(=O)OC(C)(C)C)c3ccccc3)C(C)=C1C2(C)C | 40.8% |

Series 4 — effect on: enzyme activity; action: inhibitor; concentration: 10 µM
Target: Calcium/calmodulin-dependent protein kinase type II subunit alpha (CAMK2A, Homo sapiens, UniProt Q9UQM7)
Chain of UniProt Q9UQM7 (whole entry, looked up): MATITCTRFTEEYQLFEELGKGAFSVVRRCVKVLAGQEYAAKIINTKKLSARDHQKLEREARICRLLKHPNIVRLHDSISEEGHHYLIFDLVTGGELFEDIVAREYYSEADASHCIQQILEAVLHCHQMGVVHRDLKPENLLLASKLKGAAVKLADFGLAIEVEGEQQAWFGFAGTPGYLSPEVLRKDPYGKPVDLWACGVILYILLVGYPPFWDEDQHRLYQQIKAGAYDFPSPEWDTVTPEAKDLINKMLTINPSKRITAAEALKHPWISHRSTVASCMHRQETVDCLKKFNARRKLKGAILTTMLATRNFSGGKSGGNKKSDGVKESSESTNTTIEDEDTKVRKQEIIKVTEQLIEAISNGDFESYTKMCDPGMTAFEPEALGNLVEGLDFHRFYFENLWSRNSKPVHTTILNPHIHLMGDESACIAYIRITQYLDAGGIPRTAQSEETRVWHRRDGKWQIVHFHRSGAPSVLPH
| Structure (SMILES) | inhibition [%] |
| --- | --- |
| CC1OCCC1=O (centres unmarked) | -80 |
| C1CCN2C[C@@H]3C[C@@H](CN4CCCC[C@@H]34)[C@H]2C1 | -8 |
| C/C=C/c1ccc(OC)c(OC)c1 | -43 |
| CC1(C)CC[C@]2(C(=O)O)CC[C@]3(C)C(=CC[C@@H]4[C@@]5(C)CC[C@H](O[C@@H]6O[C@H](C(=O)O)[C@@H](O[C@@H]7O[C@@H](CO)[C@H](O)[C@H]7O)[C@H](O)[C@H]6O)C(C)(C)[C@@H]5CC[C@]43C)[C@@H]2C1 | -31 |
| CCCCCc1ccco1 | 16 |
| CC(C)(O)[C@H]1CC[C@@](C)([C@H]2CC[C@]3(C)[C@@H]2[C@H](O)C[C@@H]2[C@@]4(C)CC[C@H](O)C(C)(C)[C@@H]4[C@@H](O[C@@H]4O[C@H](CO)[C@@H](O)[C@H](O)[C@H]4O)C[C@]23C)O1 | 21 |
| O=C(O)C1=C(CSc2nnnn2CS(=O)(=O)O)CS[C@@H]2[C@H](NC(=O)[C@H](O)c3ccccc3)C(=O)N12 | -6 |
| CC(=O)O[C@H]1C[C@@]2(C)[C@@H](C[C@H]1O)C(=O)C=C1[C@@H]2CC[C@]2(C)[C@@H]([C@@](C)(O)[C@H](O)CCC(C)(C)O)CC[C@@]12O | -14 |
| CO[C@]12C[C@@H](COC(=O)c3cncc(Br)c3)CN(C)[C@@H]1Cc1cn(C)c3cccc2c13 | 0 |
| CC1(C)[C@H](C(=O)O)CC[C@]1(C)C(=O)O | -32 |
| Cn1cnc2c(ncn2[C@@H]2O[C@H](CO)[C@@H](O)[C@H]2O)c1=N | 28 |
| COc1ccc(CCN(C)CCC[C@@](C#N)(c2ccc(OC)c(OC)c2)C(C)C)cc1OC | 4 |
| C[C@@H]1O[C@@H](OC[C@H]2O[C@@H](Oc3cc(O)c4c(=O)cc(-c5ccc(O)cc5)oc4c3)[C@H](O[C@@H]3O[C@@H](C)[C@H](O)[C@@H](O)[C@H]3O)[C@@H](O)[C@@H]2O)[C@H](O)[C@H](O)[C@H]1O | -9 |
| COn1cc(CC#N)c2ccccc21 | 7 |
| C=C(C)[C@@H]1CC[C@]2(C(=O)O)CC[C@]3(C)[C@H](CC[C@@H]4[C@@]5(C)CC[C@H](O[C@@H]6OC[C@H](O)[C@H](O)[C@H]6O[C@@H]6O[C@@H](C)[C@H](O)[C@@H](O)[C@H]6O)[C@@](C)(CO)[C@@H]5CC[C@]43C)[C@@H]12 | 4 |
| CC(O)(CC(=O)O)CC(=O)O | -7 |
| CC(C)NC[C@H](O)COc1ccc(CCOCC2CC2)cc1 | -4 |
| COC1=CC(=O)C[C@@H](C)[C@]12Oc1c(Cl)c(OC)cc(OC)c1C2=O | 3 |
| Cc1cc(O)cc(C)c1O | -23 |
| COc1ccc(CCC(=O)c2ccc(O)cc2)c(OC)c1 | -4 |
| CCOC(=O)c1c(CSc2ccccc2)n(C)c2cc(Br)c(O)c(CN(C)C)c12 | -4 |
| C=Cc1c(C)c2cc3nc(c(CC(=O)N[C@@H](CC(=O)O)C(=O)O)c4[nH]c(cc5nc(cc1[nH]2)C(C)=C5CC)c(C)c4C(=O)O)[C@@H](CCC(=O)O)[C@@H]3C | -2 |

Excerpt of the above (series 1):
| target | remaining activity [%] |
| --- | --- |
| SGK2 (Homo sapiens, UniProt Q9HBY8) | 98.9 |
| TEC (Homo sapiens, UniProt P42680) | 102 |
| JAK1 (Homo sapiens, UniProt P23458) | 110 |
| SIK2 (Homo sapiens, UniProt Q9H0K1) | 100 |
| PAK1 (Homo sapiens, UniProt Q13153) | 98.5 |
| CLK2 (Homo sapiens, UniProt P49760) | 94.5 |
| PRKCQ (Homo sapiens, UniProt Q04759) | 106 |
| IGF1R (Homo sapiens, UniProt P08069) | 95.9 |
| CAMKK1 (Homo sapiens, UniProt Q8N5S9) | 102 |
| CSNK1E (Homo sapiens, UniProt P49674) | 34.3 |
| Cyclin-dependent kinase 2, with cyclin E (CDK2, Homo sapiens, UniProt P24941) | 89.4 |
| CSNK1D (Homo sapiens, UniProt P48730) | 20.8 |
| CAMK1 (Homo sapiens, UniProt Q14012) | 104 |
